# Experimental data collected from several papers.
# Each line is one published result; not all experiments were run side by side.
SMILES,method,matrix,time,pH,temperature,setting,solubility
COc1cc(OC)c(/N=N/c2ccc(C(=O)NO)cc2)c(OC)c1,,water,,,,,> 20 µM
CN1CCCC1C(=O)NC(Cc1ccc(-n2cccn2)cc1)B(O)O (centres unmarked),nephelometry,aqueous buffer,,pH 6.8,,,> 200 µM
CCC1(CC)CC(=O)N(C2CCOc3ccc(C(=O)NC4CC(C)(C)Oc5ccccc54)cc32)C(=N)N1 (centres unmarked),,aqueous buffer,,pH 7,,,≥ 100 µM
Clc1cccc(Nc2nc(NCc3ccccc3)c3ccccc3n2)c1,,aqueous buffer,,pH 6.2,,,0.01 µg/mL
CC1=Cc2ccccc2OC12Oc1ccccc1C=C2C,absorbance,water,,,,,6.93 µg/mL
CC(=Nc1ccc(N)cc1)N(C)C,shake flask,PBS,24 h,pH 7.4,25 °C,,1050 µg/mL
Cc1cc(C)nc(NC(=S)N2CCN(Cc3ccc(C(F)(F)F)cc3)CC2)c1,,PBS,6 h,pH 7.4,,,24.5 µM
CN1CCC[C@@H]1C(=O)N[C@@H](Cc1ccc(-c2ccccc2)cc1)B(O)O,nephelometry,aqueous buffer,,pH 6.8,,,> 200 µM
O=C(NC1CCCCC1)c1cccc(N2Cc3cn(Cc4ccc(F)cc4)nc3C2)c1,,water,,,,,< 1 µM
C/C(N)=N/C(=N\S(=O)(=O)c1ccc(C(F)(F)F)cc1)N1C[C@H](c2ccccc2)C(c2ccc(Cl)cc2)=N1,,simulated gastric fluid,,pH 1.2,,,7 µM
O=c1c2ccccc2[se]n1CCCCCCn1[se]c2ccccc2c1=O,HPLC,simulated gastric fluid,24 h,pH 1.2,25 °C,acidic,2.2 µg/mL
CN(C)C(=O)c1ccnc(N2Cc3cn(Cc4ccc(Cl)cc4)nc3C2)n1,,water,,,,,> 100 µM
CN1CC(=Cc2cc(C(F)(F)F)ccc2Cl)C(=O)C(=Cc2cc(C(F)(F)F)ccc2Cl)C1,absorbance,water,,,,,6.52 µg/mL
CN(C)C(=O)c1cccc(N2Cc3cn(Cc4ccc(F)c(F)c4)nc3C2)c1,,water,,,,,20 µM
O=C(Nc1cc(-c2ccnc3[nH]ccc23)c(Cl)cn1)[C@H]1CCC[C@@H](NC(=O)C(F)(F)F)C1,,FaSSIF,,pH 6.8,,,24.2 µM
OCC1OC(n2cnc3c(NCc4ccc(Br)s4)ncnc32)C(O)C1O (centres unmarked),,water,,,,,290 µg/mL
O=C(CN1CN(c2cccc(F)c2)C2(CCN(C(=O)c3cnc4[nH]ncc4c3)CC2)C1=O)NCC(F)(F)F,,aqueous buffer,,pH 6.5,,,400000 µg/mL
NCCCC[C@H](NC(=O)[C@H](Cc1c[nH]c2ccccc12)NC(=O)[C@H](CCCCN)NC(=O)[C@@H](N)Cc1c[nH]c2ccccc12)C(=O)N[C@@H](Cc1c[nH]c2ccccc12)C(=O)O,,water,,,,,> 10000 µM
CCC(C)n1c(C(=O)Nc2cnc(C(=O)NC)n(CC(C)C)c2=O)ncc(NC(=O)c2ncc(NC(=O)c3ccccc3)c(=O)n2Cc2ccc(OC)cc2)c1=O (centres unmarked),,PBS,4 h,pH 7.4,25 °C,,5 µM
COc1cccc2c(NCc3ccccc3)nc(Nc3cccc(F)c3)nc12,,aqueous buffer,,pH 7.4,,,< 0.01 µg/mL
CN(C)C(=O)c1ccnc(N2Cc3cn(Cc4cc(F)cc(F)c4)nc3C2)n1,,water,,,,,> 100 µM
Brc1cccc(CNc2nc(NCc3ccccc3)c3ccccc3n2)c1,,aqueous buffer,,pH 7.4,,,0.17 µg/mL
CCCCCCCCCCCCCCCCCC(=O)Oc1c2n(cc(C(=O)NCc3c(F)cc(F)cc3F)c1=O)CC1OC3CCC(C3)N1C2=O (centres unmarked),,water,24 h,,,,0.45 µg/mL
COc1ccc(C(=O)n2c(C)c(Cc3cccc(O[C@@H](C)C(=O)O)c3)c3cc(OC(F)(F)F)ccc32)cc1,,aqueous buffer,,pH 7.4,,,~75 µM
CC(C)[C@@H](C)Nc1nc(-c2cccs2)nc(Cl)c1-c1c(F)cc(F)cc1F,mass spectrometry,PBS,,pH 7.4,,,< 0.5 µM
Cc1cc(C(=O)Nc2nc3cccc(C)c3n2[C@H]2CCCCN(C(=O)/C=C/CN(C)C)C2)ccn1,,aqueous buffer,,,,,900 µM
Cc1ncc2[nH]c(=O)n(-c3cnc(Oc4cccc5c4C(C)(C)CO5)c(Cl)c3)c2n1,,aqueous buffer,,pH 7,,,32 µM
COc1cccc2c(NCc3ccccc3)nc(Nc3cccc(Cl)c3)nc12,,aqueous buffer,,pH 5,,,0.08 µg/mL
Cc1cc(/C=C2\Sc3ccccc3N2CCCN2CCCC2)c2ccccc2[n+]1C,HPLC,water,24 h,,25 °C,,6360 µM
O=c1[nH]c2cccnc2n1-c1ccc2c(c1)OC1(CCCCC1)O2,,aqueous buffer,,pH 7,,,< 2 µM
CCCCN1/C(=C/c2cc(/C=C/c3ccc(N(c4ccccc4)c4ccccc4)cc3)[n+](C)c3ccccc23)Sc2ccccc21,HPLC,water,24 h,,25 °C,,89 µM
CC(=O)Nc1ccnc(N2Cc3cnn(Cc4ccc(F)cc4)c3C2)n1,,water,,,,,> 100 µM

# Excerpt of the above:
SMILES,method,matrix,time,pH,temperature,setting,solubility
COc1cccc2c(NCc3ccccc3)nc(Nc3cccc(Cl)c3)nc12,,aqueous buffer,,pH 5,,,0.08 µg/mL
Cc1cc(/C=C2\Sc3ccccc3N2CCCN2CCCC2)c2ccccc2[n+]1C,HPLC,water,24 h,,25 °C,,6360 µM
